Experimental data gathered from unrelated publications.
Every numbered part comes from another study and shows a few of its results, in no order. Positions count from the first letter of the parent shown.

Study 1 — technique: RNA Bind-n-Seq; form: RNA; sample: in vitro; concentration: 365 nM; reference: no-protein control; direction: higher = stronger binding
Target: RNA binding protein fox-1 homolog 2, RRM domain, GST-SBP tag (RBFOX2, Homo sapiens, UniProt O43251-10, residues 100-194)
Notes: natural RNA segment, single round, ends assumed
Construct (chain): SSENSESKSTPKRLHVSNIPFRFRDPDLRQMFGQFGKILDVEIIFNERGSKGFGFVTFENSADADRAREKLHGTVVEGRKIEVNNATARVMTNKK
Oligonucleotide	RBNS enrichment (R)
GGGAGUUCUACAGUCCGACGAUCUACUCAAAGCUCACAUCAUAGGCCGUGCGUUCGCUGGAGGGGGCCCUGGUCUUGGCGCUUCCCUGAUGGACAGAGCUCAAGUUCCAUUUAUAUUAACCGCCACCUGUGGAUGGAAUUCUCGGGUGCCAA	0.4
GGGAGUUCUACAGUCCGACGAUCUCCCCCCACUUACAUAAGUAAACCCAACAUAAGGAGGACCAUUCCUUUUCUUUCAUUCAGAUGACCUUUUUCUGAAUCUGGGCACUGAAGGGAUGCAUAAAAUAAUGUUAUGGAAUUCUCGGGUGCCAA	0.329
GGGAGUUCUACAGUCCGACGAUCACUGUCAAAUGCUGGUAUUGAAUGGGGACUGAGGAUGGGUCUCAGAGAGCAACCUCCUCCCUCGUAGAGGGAGAUUAUAUCCCCAACUCCAGGGACCUCUUUAUCUCAAUUGGAAUUCUCGGGUGCCAA	0.256
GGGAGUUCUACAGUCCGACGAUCUUUCAUCUGAGGACUUUCAUCUGUGCAUAUCACGGCCCCCCAGGGCAGUUCCUGCUGGACCAGACUCUCUGGCAGAGGAGGUGGAGUUCUUCCAUGCAGGAGCACGGCAUUGGAAUUCUCGGGUGCCAA	0.393
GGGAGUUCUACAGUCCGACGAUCAUGUAAACGCAGCGUGUGCCCACGCUCAGCAGGUGUGCCAUCCUUCCACCUGCUGGGGCACCAUUCUUAGUAUACAGAGGUGGCCUUACACACAUCUUGCAUGGAUGGCAUGGAAUUCUCGGGUGCCAA	1.42
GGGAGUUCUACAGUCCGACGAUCCUUGCGGUGAUAAAUCUUUUUAAAGGCAACUCAGUAUUUUUUAAAGGACAAAAUAAACUGACUGAAGGGUUCGCUACUUCCAGUCACAACCUGUGUAUAGAAGAAAGAAAUGGAAUUCUCGGGUGCCAA	0.422
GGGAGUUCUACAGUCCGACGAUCCAGCUUGGGCCCAGACUCCUCCGCUGUGUAGCAGAUGAGGAAAAUCAGGCCAGAGGACAACAGGCUGGCGUUUUGUUGGGAACUGAAGAGGAAUCUGUUGAACACAGCGAUGGAAUUCUCGGGUGCCAA	0.613
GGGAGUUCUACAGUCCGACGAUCGACAAGGCAGAAAUGAACAUGAAAAGUCCCCAGGAGAGGGGAGCUGUGUAGUGAGGGAUACUGAGGGCAGUCCUGUGGCUGAGGGGCACAGAUUGAACUGCUGAACUAGUUGGAAUUCUCGGGUGCCAA	1.66
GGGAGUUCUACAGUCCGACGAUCUCUCCUUUCUUUCAAGUGUCGUGAGUCGUCUUGAUUGUAUAUUGGAAAUAACUGUGUAACAAAUCGUAUUAUAAAUAUUUCAAUUAAUUUUACUCUGAAUUUGUUUAUUAUGGAAUUCUCGGGUGCCAA	1.06
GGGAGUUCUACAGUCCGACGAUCCGUUCCCUCCCCUGGGCCUGACUGAGCCUGCUCAUUGUUUUUCCCUUUAUUACACAGGACAGCCAGGGGAGGAGGGGGGCCCAGCCCUGGGAGGCUGGUGGGAGGCAGGGUGGAAUUCUCGGGUGCCAA	0.674
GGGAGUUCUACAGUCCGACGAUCACUCUUCUCAGAGCUUUGGGGGUUAUGUGAAAGGCUGACUAGUUGAGGGUUUAGCUGCAGGGAAGGUCCUGGGUAGAUUUCCUUUUUAAGGUUCCCAGGGUGUGGAUGCCUGGAAUUCUCGGGUGCCAA	0.793
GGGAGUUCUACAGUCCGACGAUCAAGGAGGAAGCUCACUCACUCAAGAGCACCUCCAUGUACCGCGUCACACUGGAAGGAGGCUAAGUCUCAGUCUUCAAGUUCUGGACUUUCUUCUCUCCAGUGGCACUUGUUGGAAUUCUCGGGUGCCAA	0.241

Study 2 — target: TEF, bZIP domain (human); technique: DHFR protein complementation; sample: yeast; reference: wild-type JUN-FOS pair; direction: higher = stronger binding
Notes: single substitutions, most at no-binding floor
Starting sequence: JUN, bZIP domain (human); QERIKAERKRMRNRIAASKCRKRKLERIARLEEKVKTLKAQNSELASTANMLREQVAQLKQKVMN; partner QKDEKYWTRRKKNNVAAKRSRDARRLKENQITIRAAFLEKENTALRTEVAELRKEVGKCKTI
Substitution	binding fitness
T48D	-1.65 natural log
L52D	-1.51 natural log
I28K	-1.53 natural log
S47L	-1.47 natural log
S47Y	-1.53 natural log
E54A	-1.4 natural log
A29Q	-1.27 natural log
R30L	-1.42 natural log
S47N	-1.33 natural log
L59S	-1.29 natural log
K39E	-1.26 natural log
A49L	-1.31 natural log
M51A	-1.17 natural log
A40S	-1.39 natural log
Q55G	-1.26 natural log

Study 3 — technique: DHFR PCA, deep sequencing; sample: yeast; with: (+)-ABA 200 µM; reference: wild-type fitted maximum; direction: higher = stronger binding
Target: ABI1, truncated, D143A, DHFR fusion (Arabidopsis thaliana)
Notes: methotrexate growth selection, single substitutions
Starting sequence: PYL1, truncated, DHFR fusion (Arabidopsis thaliana); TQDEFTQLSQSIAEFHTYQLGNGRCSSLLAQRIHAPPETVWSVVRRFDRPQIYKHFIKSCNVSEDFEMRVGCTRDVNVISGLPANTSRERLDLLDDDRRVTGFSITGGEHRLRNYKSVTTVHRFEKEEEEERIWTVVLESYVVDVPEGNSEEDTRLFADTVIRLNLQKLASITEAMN
Substitution	relative binding score
Q7R	96.2%
V136H	50.3%
E14T	91.6%
N61T	102%
T106W	91.4%
T17C	90.2%
H110Y	3.71%
H122G	37.7%
S87W	0.928%
S26T	104%
R69P	40.6%
E38Y	67.6%
A30H	106%
V136M	101%
L94I	97.6%
V100S	67.9%
V62P	81.2%
H16G	11.1%
R155L	84.9%
D153Q	82.6%
A13V	91.5%
Y18C	81%
E147F	92.5%
N61M	98%
T86Y	100%

Study 4 — technique: protein-binding microarray; form: double-stranded DNA, one strand shown; sample: in vitro; concentration: 250 nM; notes: 60-bp whole probe; with: salmon DNA 0.4 mg/ml; reference: random background probes; direction: higher = stronger binding; constant ends, left off below: GCCTAGCAC … GTCTTGATTCGCTTGACGCTGCTG
Target: Interferon regulatory factor 5, full length, phosphomimetic (IRF5, Homo sapiens, UniProt Q13568-2, residues 1-514, K96S/S451D/S453D/S456D/S462D)
Oligonucleotide	log fluorescence [z-score]
TTAGGTCACGGTTTCGGTTAGTGCTAG	7.6
TCACTTTCTGTTTTCTCACTGTGCTAG	8.95
TTAGGACTGGACTTACGGTTAGTGCTA	0.0639
TTAGGTATCCGTCTCGGTTAGTGCTAG	0.711
TTAGATATCTGACTGGATTAGTGCTAG	0.191
TTAGAACTAGGGTTTCGATTAGTGCTA	4.92
AGTGTGGTCTGTTTCTGATAGTGCTAG	0.633
TTAGATATCAGTCTCGATGAGTGCTAG	1.56
ATGTCTTCCCCTCTCATTCCGTGCTAG	-0.0864
AGGCTCATACATCTGGGTGGGTGCTAG	-0.345
TTAGGTCTCGGACTGGGTCAGTGCTAG	-0.397
GACGGACTACTTTTCCTGACGTGCTAG	-0.145
TTAGGTTTCGACACGGGGTTAGTGCTA	5.97
AGATGAAAAGTGAAGCCTAGGTGCTAG	0.159
TTAGGACTGCTTATCCTGTAGTGCTAG	-0.343
GACGGTCTCCTTTTCCTTACGTGCTAG	0.4
TTAGGTATCCTACTGCCTTAGTGCTAG	-0.0106
TTAGATTTCAGACTGGACTAGTGCTAG	0.236
TCATTTTTCATTATTGTACTGTGCTAG	1.87

Study 5 — target: CCNB3, cyclin fold, Cln2 fusion (human); technique: yeast growth competition, sequencing; sample: yeast; notes: weak parent motif; reference: not given; direction: higher = stronger binding
Starting sequence: INSM1 docking peptide (human); PKAIRKLHFEDEV; partner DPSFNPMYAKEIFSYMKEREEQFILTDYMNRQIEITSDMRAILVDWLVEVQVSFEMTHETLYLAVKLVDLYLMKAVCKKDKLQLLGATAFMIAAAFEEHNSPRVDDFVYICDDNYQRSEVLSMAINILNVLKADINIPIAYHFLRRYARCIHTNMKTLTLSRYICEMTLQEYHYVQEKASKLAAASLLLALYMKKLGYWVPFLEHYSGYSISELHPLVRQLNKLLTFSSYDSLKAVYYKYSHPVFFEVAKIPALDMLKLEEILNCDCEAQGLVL
Substitution	normalised enrichment score
PKATRKLHFEDEV [I4T]	0.114
PKAIRKLHFDDEV [E10D]	0.226
PKAIRKLHTEDEV [F9T]	-0.0599
PKAIRKLHYEDEV [F9Y]	-0.011
PKAIRKLNFEDEV [H8N]	0.636
PKAIRKLHFEIEV [D11I]	0.527
PKAIRKLGFEDEV [H8G]	-0.203
PKAIRKLHFEGEV [D11G]	0.347
PKAIRKLKFEDEV [H8K]	0.566
PKMIRKLHFEDEV [A3M]	0.42
PKAIRKLHFEDHV [E12H]	0.796
PKAIRKKHFEDEV [L7K]	-0.0572
PKAIRKLHFPDEV [E10P]	0.555
PKEIRKLHFEDEV [A3E]	0.376
PKAKRKLHFEDEV [I4K]	1.32
PKAIRKLHCEDEV [F9C]	-0.435
PKSIRKLHFEDEV [A3S]	0.0949
PKKIRKLHFEDEV [A3K]	0.269
PKAIRMLHFEDEV [K6M]	0.432
PKAIRKLHFVDEV [E10V]	-0.0051
PKAIRKLHFEDIV [E12I]	0.714
PKAIRRLHFEDEV [K6R]	0.0489
PKIIRKLHFEDEV [A3I]	0.243
PKAIRKLHFELEV [D11L]	0.293
PKAFRKLHFEDEV [I4F]	1.04

Some of these lines once more (study 2):
Substitution	binding fitness
K39E	-1.26 natural log
S47Y	-1.53 natural log
I28K	-1.53 natural log
L52D	-1.51 natural log
S47N	-1.33 natural log
S47L	-1.47 natural log
T48D	-1.65 natural log
R30L	-1.42 natural log
A29Q	-1.27 natural log
